{"data": "Measurements from different studies", "note": "Each numbered part is a random draw from the data of one study; scales do not carry over between parts. Changes are numbered by the printed parent chain."}
{"data": "Block 1", "target": "CCND1, cyclin fold, Cln2 fusion (human)", "technique": "yeast growth competition, sequencing", "matrix": "yeast", "setting": "weak parent motif", "reference": "not given", "direction": "higher = stronger binding", "starting sequence": "ASZ1 docking peptide (human); GFGFLLFICKLTF"}
{"Variant": "C9A", "normalised enrichment score": 0.318}
{"Variant": "F2A", "normalised enrichment score": -0.252}
{"Variant": "L6A", "normalised enrichment score": 0.0704}
{"Variant": "I8A", "normalised enrichment score": -0.0475}
{"Variant": "T12A", "normalised enrichment score": -0.4}
{"Variant": "L11A", "normalised enrichment score": 0.164}
{"data": "Block 2", "target": "Fragile X messenger ribonucleoprotein 1, C-terminal low-complexity region (Fmr1, Mus musculus, UniProt P35922)", "technique": "RNA Bind-n-Seq", "molecule type": "RNA", "matrix": "in vitro", "tested at": "200 nM", "setting": "whole 134-nt RNA, ends assumed", "together with": "150 mM LiCl", "reference": "input library", "direction": "higher = stronger binding", "library": "7-deaza-guanosine replaces G", "all sequences stand within": "GGGAGUUCUACAGUCCGACGAUC … UGGAAUUCUCGGGUGUCAAGG"}
{"Oligonucleotide": "CUGUGCUACACAUCGUAUGUACCGAAUCGGGCCCCCCCGGGGCCCCCCCGGCCCCCCCGGGAAAGUAUUAUGUUACGCCGUUCGGAUCUG", "log2 enrichment": -0.856}
{"Oligonucleotide": "GUCCUGUGCUACACAUCGUAUGUACCGAAUCGGCCCCCCGGCCCCCCGGGGCCCCCCGGAAAGUAUUAUGUUACGCCGUUCGGAUCUGCA", "log2 enrichment": 0.603}
{"Oligonucleotide": "UGGGAUGUGGAUUUUGUUUAUUUUUUUAGCUCAUUUCCAGGGGUGGGAAUUUUUUUUUAAUAUGUGUCAUGAAUAAAGUUGUUUUUGAAA", "log2 enrichment": 1.19}
{"Oligonucleotide": "UCCUGUGCUACACAUCGUAUGUACCGAAUCGGGAAAAAGGGAAAAAGGGAAAAAAAGGGAAAGUAUUAUGUUACGCCGUUCGGAUCUGCA", "log2 enrichment": 0.631}
{"Oligonucleotide": "UCAAGUCCUGUGCUACACAUCGUAUGUACCGAAUCGGGGAAAGGAAAGGAAAGGAAAGUAUUAUGUUACGCCGUUCGGAUCUGCACUUCC", "log2 enrichment": -0.488}
{"Oligonucleotide": "GCAGGAAGUAAAAACAAAUGGAAAUGCUUCGUAUAGUGGCAGGGGUGGGGGUUGCUAAGGAAAGGGUGGGAUGGGAGUGGGUAAAGAGUU", "log2 enrichment": 1.4}
{"Oligonucleotide": "GCAGGAAGUAAAAACAAAUGGAAAUGCUUCGGAUAGUGGCAUGGGUGGGGGUUGCUAAGGAAAGGGUGGGAUGGGAGUGGGUAAAGAGUU", "log2 enrichment": 1.35}
{"Oligonucleotide": "UGUGAAAGAAAACCGAAGUUUUAAAUGACUUCUCAUGGUUAUUUUUUUUCCUUUCUCUUGCAGGACAUUGGGGACACAUUGAGCAGGUAU", "log2 enrichment": -1.61}
{"Oligonucleotide": "CAAGUCCUGUGCUACACAUCGUAUGUACCGAAUCGGAAAGGGGAAAGGAAAGGGGAAAGUAUUAUGUUACGCCGUUCGGAUCUGCACUUC", "log2 enrichment": -0.0576}
{"Oligonucleotide": "UGGGAGGUGGAUCUUGUUUAUUUUUUUAGCUCAUUUCCAGGGGUGGGAAUUUUUUUUUAAUAUGUGUCAUGAAUAAAGUUGUUUUUGAAA", "log2 enrichment": 0.818}
{"Oligonucleotide": "UCCUGUGCUACACAUCGUAUGUACCGAAUCAAACCCCCCCAAACCCCCCCAAAUUUAAAAAAGUAUUAUGUUACGCCGUUCGGAUCUGCA", "log2 enrichment": 1.92}
{"data": "Block 3", "target": "Hepatocyte nuclear factor 3-beta, forkhead domain (FOXA2, Homo sapiens, UniProt Q9Y261, residues 142-269)", "technique": "protein-binding microarray", "molecule type": "double-stranded DNA, one strand shown", "matrix": "in vitro", "tested at": "not given", "setting": "k-mer, scored over probes, only values ≥0.25", "direction": "higher = stronger binding", "Target sequence (chain)": "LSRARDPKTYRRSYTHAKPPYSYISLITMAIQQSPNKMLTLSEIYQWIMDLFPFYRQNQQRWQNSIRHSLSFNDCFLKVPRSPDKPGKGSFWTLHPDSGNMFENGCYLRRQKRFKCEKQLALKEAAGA"}
{"Oligonucleotide": "ACATATAG", "E-score": 0.324}
{"Oligonucleotide": "ACATATTG", "E-score": 0.258}
{"Oligonucleotide": "TATTAACA", "E-score": 0.304}
{"Oligonucleotide": "ACCAACAT", "E-score": 0.3}
{"Oligonucleotide": "AGTATAAG", "E-score": 0.316}
{"Oligonucleotide": "AATAGCGT", "E-score": 0.253}
{"Oligonucleotide": "ATATTTGC", "E-score": 0.369}
{"Oligonucleotide": "TATACTGA", "E-score": 0.339}
{"Oligonucleotide": "ATGTATAA", "E-score": 0.311}
{"Oligonucleotide": "AAACAACA", "E-score": 0.348}
{"Oligonucleotide": "AACATCAC", "E-score": 0.317}
{"Oligonucleotide": "ACAAGTAT", "E-score": 0.282}
{"Oligonucleotide": "AAAATACA", "E-score": 0.294}
{"Oligonucleotide": "ATGATATG", "E-score": 0.292}
{"Oligonucleotide": "TATTGAAA", "E-score": 0.276}
{"Oligonucleotide": "ACGGATAC", "E-score": 0.259}
{"Oligonucleotide": "TATCCATA", "E-score": 0.305}
{"Oligonucleotide": "ACATACAC", "E-score": 0.329}
{"Oligonucleotide": "ATTAGACA", "E-score": 0.286}
{"Oligonucleotide": "ATTATTGA", "E-score": 0.263}
{"Oligonucleotide": "CATAGCAA", "E-score": 0.297}
{"Oligonucleotide": "GACAAACA", "E-score": 0.297}
{"Oligonucleotide": "ACAATCAC", "E-score": 0.273}
{"Oligonucleotide": "AACAATAC", "E-score": 0.343}
{"Oligonucleotide": "TGGATACA", "E-score": 0.258}
{"data": "Block 4", "target": "ABI1, truncated, D143A, DHFR fusion (Arabidopsis thaliana)", "technique": "DHFR PCA, deep sequencing", "matrix": "yeast", "setting": "methotrexate growth selection, single substitutions", "together with": "(+)-ABA 0.032 µM", "reference": "wild-type fitted maximum", "direction": "higher = stronger binding", "starting sequence": "PYL1, truncated, DHFR fusion (Arabidopsis thaliana); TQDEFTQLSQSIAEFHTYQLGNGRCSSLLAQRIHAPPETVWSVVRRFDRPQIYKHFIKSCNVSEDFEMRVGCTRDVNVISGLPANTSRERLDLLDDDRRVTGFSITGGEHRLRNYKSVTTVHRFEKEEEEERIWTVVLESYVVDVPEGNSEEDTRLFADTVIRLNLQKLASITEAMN"}
{"Variant": "I133F", "relative binding score [%]": 8.15}
{"Variant": "A35P", "relative binding score [%]": 0.105}
{"Variant": "G71E", "relative binding score [%]": 0.102}
{"Variant": "L8Q", "relative binding score [%]": 6.07}
{"Variant": "P37Y", "relative binding score [%]": -2.88}
{"Variant": "Q2M", "relative binding score [%]": 45.2}
{"Variant": "G107H", "relative binding score [%]": 11.1}
{"Variant": "F5I", "relative binding score [%]": 23.5}
{"Variant": "V78F", "relative binding score [%]": 102}
{"Variant": "Y53S", "relative binding score [%]": -0.69}
{"Variant": "S63N", "relative binding score [%]": 20.9}
{"data": "Block 5", "target": "RNA binding protein fox-1 homolog 2, RRM domain, GST-SBP tag (RBFOX2, Homo sapiens, UniProt O43251-10, residues 100-194)", "technique": "RNA Bind-n-Seq", "molecule type": "RNA", "matrix": "in vitro", "tested at": "365 nM", "setting": "natural RNA segment, single round, ends assumed", "reference": "no-protein control", "direction": "higher = stronger binding", "all sequences stand within": "GGGAGUUCUACAGUCCGACGAUC … UGGAAUUCUCGGGUGCCAA", "Construct (chain)": "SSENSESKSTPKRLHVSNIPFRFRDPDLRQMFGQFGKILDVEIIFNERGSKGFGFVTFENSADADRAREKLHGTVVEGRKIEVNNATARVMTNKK"}
{"Oligonucleotide": "AGAGACAGAAGCAGGCUGGAGGUAAGGCCUUUGAGCCCACAAAGCCUUAUCAAGUGUCUUCCAUCAUGGAUUCAUUACAGCUUAAUCAAAAUAACGCCCCAGAUACCAGC", "RBNS enrichment (R)": 0.218}
{"Oligonucleotide": "CCAGAUCGCCCUGCCUAUCCACAAAGUAGAUGACCAAUGCACGCUCCUCAAACAUCUUUGGAGGAACUACCUGGCCAAAACACUGGCCAGGAUGCAGCAAGCAGCAGCAG", "RBNS enrichment (R)": 0.544}
{"Oligonucleotide": "UAAUUCAACUGAAUAAAAGUGUCACGGGUAAAGCUUUUUAACGGUUAAUUUCUGUCAAACAGUAGGUGACAAAUGGCCGAUCUUAUCAGUGUCUCUUGAGCAUCCCUUCG", "RBNS enrichment (R)": 0.443}
{"Oligonucleotide": "AAAUAUUUUAUUUGAUAAAGAUAGUUGAUGGUUUAUUUUAAAAGAUGCACUUUGAGUUGCAAUAUGUUAUUUUUAUAUGGGCCAAAACUACAAAAAAAAAAAAGAGGAAA", "RBNS enrichment (R)": 0.661}
{"Oligonucleotide": "CCCCAGGUCUACCCAGCCCCUGGCUGUCCUUGGUCCUGUCUCCCCUCCUGCUGUAUUCAGGGGUGCCCCCUGGUGCUCAGCCUCUACCACCCCCAACCCUGCUCUUGGGU", "RBNS enrichment (R)": 0.262}
{"Oligonucleotide": "UCCUCCUAGCUUUCCCCACAGAGAAUGUUAGACCAGUAUGGCUUCUUGCCUUGAUCCUGUUGUGGCAGUGUCUGUUCCUGCCCCAGGUGUGCUAUUCACGCAGGUUUAUU", "RBNS enrichment (R)": 0.651}
{"Oligonucleotide": "CUAUAACAAGGAUAGUUUAUAGUCUUUCCAGUUAUUUAAUGAAUAAAUGACGUUUAUUAAAAACAUUCAACAAAUUGUUGCCUUUUUAAAAUUAUCACACUUGCACAUGA", "RBNS enrichment (R)": 1.31}
{"Oligonucleotide": "CCAAAUGUCUUGACUGUGUUGUUUUUAAUCACUGUGACCCUUAAAGUACAGGCCAAGUGUUGUCAAACACCUUGGCUAAAACAGUGGAGGGUGAUGGGUAAAGCAGUAGA", "RBNS enrichment (R)": 0.219}
{"Oligonucleotide": "UUGGGGGGAAAAAAAUAUCCAUUGUGAAAAUGAAAGUACAGCCUAGCUCACCUGGGGCCUCCCUGCUCACACCAAUGCAGGUUUCAAUAAAGACUCAGCCAUGCUUCCGU", "RBNS enrichment (R)": 0.468}
{"Oligonucleotide": "CUCUUCUCAGCCUCCUCCCUCUUUUGUCCUCUUUUCCUCUCCUGCCUGAGCAGUACCAAGGUCUUACUGUCUCUAUUCCUUUCUCCAUGGCCUGCUUUGCCUGGGUUGUG", "RBNS enrichment (R)": 1.08}
{"Oligonucleotide": "CUGGAAGACGUACGCAUACUCCAUCGAUGUUGUAUUUGCAGUGGCUGAGGAAUUCUUGUACGCAGUUUUCUUUGGCUUUACGAAGCCGAUUAAAAGACCGUGUGAAAUGA", "RBNS enrichment (R)": 0.608}
{"Oligonucleotide": "CAUUCCAGCCAGUAAUUUAUAGCCUUUCCCCUAAAUCAAGAAUGAGUUUAAAAUUAUAGUCUGUCUUUUAUCUUAACAGUUCUGAAUGCUGUCCUCAAAGUAUAUAAUGU", "RBNS enrichment (R)": 0.379}
{"note": "Repeated from above (block 4):"}
{"Variant": "S63N", "relative binding score [%]": 20.9}
{"Variant": "F5I", "relative binding score [%]": 23.5}
{"Variant": "Y53S", "relative binding score [%]": -0.69}
{"Variant": "A35P", "relative binding score [%]": 0.105}
{"Variant": "L8Q", "relative binding score [%]": 6.07}
{"Variant": "V78F", "relative binding score [%]": 102}
{"Variant": "G71E", "relative binding score [%]": 0.102}
{"Variant": "P37Y", "relative binding score [%]": -2.88}
{"Variant": "G107H", "relative binding score [%]": 11.1}
